Measurements of several laboratories.
± marks the error that the study gave.

With `CC[C@H](C)[C@H](NC(=O)[C@H](CCC(=O)O)NC(=O)[C@H](Cc1ccc(I)cc1)NC(=O)[C@@H](C)NC(=O)[C@@H](N)Cc1ccc(O)cc1)C(=O)N[C@H](C(=O)NCC(N)=O)[C@@H](C)CC` the ED50 was 0.3 µg (analgesia, radiant heat tail flick; CD1 mouse; intracerebroventricular, 15 min).
`CCN(CCCCOc1ccc(CCC(=O)N2CCC(Cc3ccccc3)CC2)cc1OC)Cc1ccccc1` — result for protein level: “decreased” (decrease, ELISA, refers to: Aβ1–42; APP/PS1 transgenic mice, cerebral cortex; dose not given).
`C[C@@H](NC(=O)[C@@H](CCC(N)=O)NC(=O)[C@@H](C)NC(=O)[C@@H](CCCCN)NC(=O)[C@@H](CCC(N)=O)NC(=O)[C@@H](C)NC(=O)[C@@H](CCCCN)NC(=O)[C@@H](CCC(N)=O)NC(=O)[C@@H](C)NC(=O)[C@@H](CCC(N)=O)NC(=O)[C@@H](CCCCN)NC(=O)[C@@H](C)NC(=O)[C@@H](CCC(N)=O)NC(=O)[C@@H](CCCCN)NC(=O)[C@@H](C)NC(=O)[C@@H](CCC(N)=O)NC(=O)[C@@H](C)NC(=O)[C@@H](CCCCN)NC(=O)[C@@H](CCC(N)=O)NC(=O)[C@@H](C)NC(=O)[C@@H](CCCCN)NC(=O)[C@@H](CO)NC(=O)[C@@H](Cc1ccc(O)cc1)NC(=O)CNC(=O)CNC(=O)CN)C(=O)N[C@H](CCCCN)C(=O)N[C@H](CCC(N)=O)C(=O)N[C@H](C)C(=O)N[C@H](CCCCN)C(=O)N[C@H](CCC(N)=O)C(=O)O` has a transition midpoint of about 100 µM (circular dichroism, refers to: enoxaparin concentration; PBS; 0.05 mg/mL).
`Cc1nc(C)c(C=[N+]([O-])C(C)(C)C)nc1C`: “TH-positive neuron count” 27.1% (stereological counting; mouse MPTP model, substantia nigra; 30 mg/kg; increase).
`CCCCCCCCCCCCCCCC(=O)N[C@@H](CCC(=O)NCCOCCOCCC(=O)NCCOCCOCCC(=O)NCCCC[C@H](NC(=O)[C@H](CC(=O)O)NC(=O)[C@H](CC(C)C)NC(=O)[C@H](Cc1ccc(O)cc1)NC(=O)[C@H](CCCCN)NC(=O)[C@H](CO)NC(=O)[C@H](Cc1ccc(O)cc1)NC(=O)[C@H](CC(=O)O)NC(=O)[C@H](CO)NC(=O)[C@@H](NC(=O)[C@H](Cc1ccccc1)NC(=O)[C@@H](NC(=O)CNC(=O)[C@H](CCC(N)=O)NC(=O)[C@@H](CO)NC(=O)[C@@H](N)Cc1c[nH]cn1)[C@@H](C)O)[C@@H](C)O)C(=O)N[C@@H](CCCNC(=N)N)C(=O)N[C@@H](CCCNC(=N)N)C(=O)N[C@@H](C)C(=O)N[C@@H](CCC(N)=O)C(=O)N[C@@H](CC(=O)O)C(=O)N[C@@H](Cc1ccccc1)C(=O)N[C@H](C(=O)N[C@@H](CCC(N)=O)C(=O)N[C@@H](Cc1c[nH]c2ccccc12)C(=O)N[C@@H](CC(C)C)C(=O)N[C@@H](CC(C)C)C(=O)N[C@@H](CC(N)=O)C(=O)N[C@H](C(=O)NCC(=O)NCC(=O)N1CCC[C@H]1C(=O)N[C@@H](CO)C(=O)N[C@@H](CO)C(=O)NCC(=O)N[C@@H](C)C(=O)N1CCC[C@H]1C(=O)N1CCC[C@H]1C(=O)N1CCC[C@H]1C(=O)N[C@@H](CO)C(N)=O)[C@@H](C)O)C(C)C)C(=O)O`: “serum bilirubin and ALP” “decreased” (Sprague-Dawley rat ANIT model; dose not given).
For `Cc1ccc(/C=C/C(=O)O)cc1-c1cc2c(cc1C)C(C)(C)CCC2(C)C`, “log2 fold change” read -2.67 (RNA sequencing, refers to: Alb mRNA; rat, brain; dose not given, 24 h, single dose; relative to: vehicle).
Under “α4β7+ CCR9+ cells”, `CC[C@H](C)[C@H](NC(=O)[C@@H](NC(=O)[C@H](CC(=O)O)NC(C)=O)[C@@H](C)O)C(=O)N[C@@H](CCCNC(=N)N)C(=O)N[C@@H](CC(C)C)C(=O)N[C@@H](CC(C)C)C(=O)N[C@@H](Cc1ccccc1)C(=O)N[C@@H](CCC(N)=O)C(=O)N[C@@H](CC(C)C)C(=O)N[C@@H](CCSC)C(=O)N[C@@H](CCCNC(=N)N)C(=O)N1CCC[C@H]1C(=O)N1CCC[C@H]1C(=O)N[C@@H](CC(N)=O)C(=O)N[C@@H](CCSC)C(=O)N[C@H](C(=O)N1CCC[C@H]1C(=O)N[C@@H](C)C(=O)N[C@H](C(=O)N[C@@H](CC(N)=O)C(=O)N[C@@H](C)C(N)=O)C(C)C)[C@@H](C)O` is recorded as 14.3% (refers to: HA-29 tetramer; antigen-experienced tetramer+ CD4 T cells, healthy adults, HLA-DRB1*0101; dose not given).
`C[C@H](NC(=O)[C@H](CCC(N)=O)NC(=O)[C@H](CCCCN)NC(=O)[C@H](C)NC(=O)[C@@H]1CCCN1C(=O)[C@H](C)NC(=O)[C@H](CCCCN)NC(=O)[C@H](CCC(N)=O)NC(=O)[C@H](C)NC(=O)[C@H](CCCCN)NC(=O)[C@H](CCC(N)=O)NC(=O)[C@@H]1CCCN1C(=O)[C@H](CCC(N)=O)NC(=O)[C@H](CCCCN)NC(=O)[C@H](C)NC(=O)[C@H](CCC(N)=O)NC(=O)[C@H](CCCCN)NC(=O)[C@H](C)NC(=O)[C@@H]1CCCN1C(=O)[C@H](C)NC(=O)[C@H](CCCCN)NC(=O)[C@H](CCC(N)=O)NC(=O)[C@H](C)NC(=O)[C@H](CCCCN)NC(=O)[C@H](CO)NC(=O)[C@H](Cc1ccc(O)cc1)NC(=O)CNC(=O)CNC(=O)CN)C(=O)N[C@@H](CCCCN)C(=O)N[C@@H](CCC(N)=O)C(=O)O` has a binding ratio of 0.03 (human ALκ4 amyloid extract; 1 h, room temperature; relative to: 1 M NaCl over PBS).
With `CC1=C(C(=O)Nc2ccc(C)cc2)C(c2ccccc2Br)NC(=S)N1` (centres unmarked) the IC50 was 22.4 ± 1.83 µg/mL (contraction, calcium channel antagonist; isolated rat ileum; with: K+ 80 mM).
The EC50 of `COc1ccc(-c2c(C#N)c(N)nc3c2CCc2nc4c(cc2-3)c(C)nn4-c2ccccc2)cc1` is reported as over 100 µg/mL (ABTS scavenging, absorbance; 6 min).
For `C=C(NC(=O)C(=C)NC(=O)c1csc(C2=NC3c4csc(n4)C4NC(=O)c5csc(n5)C(C(C)(O)C(C)O)NC(=O)C5CSC(=N5)C(=CC)NC(=O)C(C(C)O)NC(=O)c5csc(n5)C3(CC2)NC(=O)C(C)NC(=O)C(=C)NC(=O)C(=CC)NC(=O)C(C(C)CC)NC2C=Cc3c(C(C)O)cc(nc3C2O)C(=O)OC4C)n1)C(N)=O` (centres unmarked), the IC50 was 0.35 ± 0.04 µM (protein synthesis, coupled transcription-translation, refers to: luciferase; Escherichia coli S30 extract; 1 h, 37 °C).
`C[n+]1ccc(C(=O)NC2CCC3(O)C4Cc5ccc(O)c6c5C3(CC[N+]4(C)CC3CC3)C2O6)cc1` (centres unmarked): “gastrointestinal transit time” 173 ± 3 min (Swiss Webster mice; subcutaneous, 10 mg/kg, up to 6 h, with: carmine red oral).
For `CC(=O)N[C@@H](Cc1c[nH]c2ccccc12)C(=O)NCC(=O)N[C@@H](C)C(=O)N[C@H]1CSCC(=O)Nc2ccc(cc2)N=Nc2ccc(c(S(=O)(=O)O)c2)-c2ccc(cc2S(=O)(=O)O)N=Nc2ccc(cc2)NC(=O)CSC[C@@H](C(=O)N[C@@H](CCCNC(=N)N)C(=O)N[C@@H](CCC(=O)O)C(=O)N[C@@H](C)C(=O)N[C@@H](C)C(=O)N[C@@H](C)C(=O)N[C@@H](CCCNC(=N)N)C(=O)N[C@@H](CCC(=O)O)C(=O)N[C@@H](C)C(=O)N[C@@H](CCC(N)=O)C(N)=O)NC(=O)[C@H](C)NC(=O)[C@H](C)NC(=O)[C@H](CCC(=O)O)NC(=O)[C@H](CCCNC(=N)N)NC(=O)[C@H](C)NC(=O)[C@H](C)NC(=O)[C@H](C)NC(=O)[C@H](CCC(=O)O)NC(=O)[C@H](CCCNC(=N)N)NC(=O)[C@H](C)NC(=O)[C@H](C)NC(=O)[C@H](C)NC(=O)[C@H](CCC(=O)O)NC1=O`, “thermal relaxation half-life” read 3.5 ± 0.1 min (cis-to-trans reversion, UV-Vis absorbance; 10 mM phosphate buffer; pH 7.0, 37 °C, with: 365 nm irradiation).
`CC[C@H]1c2cc3[nH]c4c(c3C)C(=O)[C@H](C(=O)OC)c4c3nc(cc4[nH]c(cc(n2)[C@@H]1C)c(C(C)=O)c4C)[C@@H](C)[C@@H]3CCC(=O)NCC(=O)N[C@H](CC(=O)O)C(=O)N[C@H](CCC(=O)O)C(=O)N[C@@H](C(=O)N[C@H](CC(=O)O)C(=O)NCC(=O)N[C@H](CO)C(=O)NCC(=O)N[C@H](CCCCNC(=O)CC[C@H](NC(=O)c1ccc(NCc2cnc3nc(N)[nH]c(=O)c3n2)cc1)C(=O)O)C(N)=O)C(C)C` — result for tumour fluorescence: “increased” (nude mouse KB xenograft; intravenous, 25 nmol, folate receptor dependent; relative to: HT-1080 xenograft).
The ED50 of `Cc1cc(O)c(I)c(C)c1C[C@H](N)C(=O)N[C@H](C)C(=O)N[C@@H](Cc1ccccc1)C(=O)N[C@@H](Cc1ccccc1)C(N)=O` is reported as 0.11 ± 0.06 µg (analgesia; CD-1 mouse, placebo pellet; intracerebroventricular, 72 h).
`Cc1cc(Nc2nc(C[C@@]3(C(=O)O)CCN(Cc4cccc(Cl)c4F)[C@H](C)C3)cc(C)c2F)[nH]n1`: “tumour growth inhibition” 97% (mouse, NCI-H446 xenograft; oral, 20 mg/kg once daily, monotherapy).
For `NCCCC[C@H](NC(=O)CNC(=O)CNC(=O)[C@H](CCCCN)NC(=O)CNC(=O)CNC(=O)CNC(=O)[C@H](CCCCN)NC(=O)CNC(=O)CNC(=O)[C@H](CCCCN)NC(=O)CNC(=O)CNC(=O)CNC(=O)[C@H](CCCCN)NC(=O)CNC(=O)CNC(=O)[C@H](CCCCN)NC(=O)CNC(=O)CNC(=O)CNC(=O)[C@H](CCCCN)NC(=O)CNC(=O)CNC(=O)[C@H](CCCCN)NC(=O)[C@H](CO)NC(=O)[C@H](Cc1ccc(O)cc1)NC(=O)CNC(=O)CNC(=O)CN)C(=O)NCC(=O)O`, the binding ratio was 0.04 (human ALκ4 amyloid extract; 1 h, room temperature; relative to: 1 M NaCl over PBS).
